Measurements gathered from unrelated publications.
Protocols differ between the studies behind these lines. ± marks the error that the study gave.

SMILES	cell line	test	setting	scale	endpoint	value
COc1cc(CNC(=O)C[C@H](C)CCC=C(C)C)ccc1OCc1cn(-c2ccc(C#N)cc2)nn1	UACC-62 melanoma cells	SRB	10 µM, 48 h		growth percent	56.6%
COc1ccc([C@@H]2CC(=O)c3c(O)cc(O[C@@H]4O[C@H](CO[C@@H]5O[C@@H](C)[C@H](O)[C@@H](O)[C@H]5O)[C@@H](O)[C@H](O)[C@H]4O)cc3O2)cc1O	MRC5	trypan blue exclusion	50 µg/mL, 48 h		cell count	14600 ± 472
NCCCCCO[C@H]1O[C@H](COS(=O)(=O)O)[C@@H](O[C@@H]2O[C@@H](C(=O)O)[C@@H](O[C@H]3O[C@H](COS(=O)(=O)O)[C@@H](O[C@@H]4O[C@@H](C(=O)O)[C@@H](O[C@H]5O[C@H](COS(=O)(=O)O)[C@@H](O[C@@H]6O[C@@H](C(=O)O)[C@@H](O)[C@H](O)[C@H]6OS(=O)(=O)O)[C@H](O)[C@H]5NS(=O)(=O)O)[C@H](O)[C@H]4OS(=O)(=O)O)[C@H](O)[C@H]3NS(=O)(=O)O)[C@H](O)[C@H]2OS(=O)(=O)O)[C@H](O)[C@H]1NS(=O)(=O)O	human corneal epithelial cells	cell migration, scratch	concentration not given, 24 h		wound closure	~75%
COc1c(Cl)c(/C=C(\C)C(=O)O)c(OC)c2ccccc12	NF90-8 and Pa03C reporter cells	alamarBlue	concentration not given		viability	no effect
O=C(c1ccc(Oc2ccc(C3CCCCC3)cc2)c([N+](=O)[O-])c1)C(Cl)Cl	NCI-H1650	cell growth or viability, MTT	2.5 µM		inhibition	> 95%
C#Cc1cccc(N(C(=O)CCl)C(C(=O)NC2CCCCC2)c2ccccn2)c1 (racemic)	MDA-MB-435	click chemistry ABPP	concentration not given, 6 h		off-target labelling onset	1 µM
CCN(CC)CC(=O)Nc1cccc(-n2cc(-c3ccc4ccc(-c5cn(-c6cccc(NC(=O)CN(CC)CC)c6)nn5)cc4c3)nn2)c1	RCC4	qRT-PCR, refers to: HIF-1α	1 x IC50	relative to: untreated	mRNA level	29.2%
COc1cc(CNC(=O)C[C@H](C)CCC=C(C)C)ccc1OCc1cn(-c2cccc([N+](=O)[O-])c2)nn1	NCI-H226	SRB	10 µM, 48 h		growth percent	73.5%
O=C(c1ccncc1)N1N=C2/C(=C/c3ccc(Cl)cc3)CCCC2C1c1ccc(Cl)cc1 (centres unmarked)	human erythrocytes	HRBC membrane stabilization	concentration not given		membrane protection	78.2%
COc1ccc(-c2ocnc2-c2cc(Br)c(OC)c(OC)c2)cc1OCCCC(=O)NO	HepG2 and Huh-7				concentration at maximal caspase-3 activity	0.6 µM
COc1cc2c(cc1C)NC(=O)C2=Cc1c(Cl)[nH]c2c1ccc1ccccc12	renal cancer subpanel of NCI-60		48 h		TGI	8.13 µM
CO[C@H]1N(OC)c2ccccc2[C@@]12CN=C(Nc1cc(C(F)(F)F)cc(C(F)(F)F)c1)S2 (relative stereo)	HCT-116	PI flow cytometry	40 µM, 24 h		S phase cells	7.05 ± 1.35%
COc1ccc([C@@H]2CC(=O)c3c(O)cc(O[C@@H]4O[C@H](CO[C@@H]5O[C@@H](C)[C@H](O)[C@@H](O)[C@H]5O)[C@@H](O[C@H]5O[C@H](CO)[C@@H](O)[C@H](O)[C@H]5O)[C@H](O)[C@H]4O)cc3O2)cc1O	A549	trypan blue exclusion	100 µg/mL, 24 h		cell count	10800 ± 493
COc1ccc(S(=O)(=O)N(CC(=O)O)c2c(C)c(C)c(N(CC(=O)O)S(=O)(=O)c3cccnc3)c(C)c2C)cc1	H9c2	ELISA	10 µM, with: LPS 1 µg/mL		IL-6 secretion	decreased
CCCC[C@H](NC(=O)[C@H](Cc1ccccc1)NC(=O)[C@H](Cc1c[nH]cn1)NC(=O)CCNC(=O)[C@@H](NC(=O)[C@H](C)NC(=O)[C@H](Cc1c[nH]c2ccccc12)NC(=O)[C@H](CCC(N)=O)NC(=O)[C@H](N)Cc1ccc(O)cc1)C(C)C)C(N)=O	NCI-H1299-BRS-3	Western blot	100 nM, 2 min	relative to: untreated	EGFR tyrosine phosphorylation	4.5 fold
C=C(C)[C@@H]1CC[C@]2(C(=O)OCO/N=[N+](\[O-])N3CCCC3)CC[C@]3(C)[C@H](CC[C@@H]4[C@@]5(C)CC[C@H](OC(C)=O)C(C)(C)[C@@H]5CC[C@]43C)[C@@H]12	B16-F10	Annexin V/PI flow cytometry	0.50 µM, 36 h		early apoptotic cells	6.39%
COc1cc(CNC(=O)C[C@H](C)CCC=C(C)C)ccc1OCc1cn(-c2ccccc2[N+](=O)[O-])nn1	K562 leukaemia cells	SRB	10 µM, 48 h		growth percent	51.5%
O=C(N1CCCC1)n1cc(-c2ccc(-c3ccccc3)cc2)nn1	mouse T-cells	N-terminal labeled proteins, N-terminal enrichment proteomics, refers to: SERF2	1 nM, 6 h	relative to: DMSO	SILAC ratio	1.08 ± 0.08
CC(=O)OC[C@H]1O[C@@H](Sc2sc(C(=O)c3ccc(Br)cc3)c(N)c2-c2nc3ccccc3s2)[C@H](OC(C)=O)[C@@H](OC(C)=O)[C@@H]1OC(C)=O	MDA-MB-435	SRB	10 µM, 48 h	relative to: untreated	growth	80.7%
COc1cc(CNC(=O)C[C@H](C)CCC=C(C)C)ccc1OCc1cn(-c2cccc(C(F)(F)F)c2)nn1	K562 leukaemia cells	SRB	10 µM, 48 h		growth percent	59%
COc1ccc2c3c(oc2c1CC=C(C)C)-c1cc(CC=C(C)C)c(O)cc1OC3	3T3-L1 adipocytes	activator	up to 100 µM		glucose consumption	inactive
Cc1ccc(CN2C(=O)/C(=N\c3ccc(Cl)cc3Br)c3ccccc32)cc1	RAW264.7 co-cultured with B16		1.5 µM		CD206-positive cells	1.4%
CCCCCCCCCCCCCC[C@@H](O)[C@@H](O)[C@H](CO[C@H]1O[C@H](CO)[C@H](O)[C@H](O)[C@H]1O)NC(=O)CCCCCCc1ccccc1	human Vα24+ NKT cells		10 ng/mL, 24 h, HeLa-CD1d co-culture, unit not given	relative to: α-GalCer	IFN-γ secretion	1.28 ± 0.08
CC(=O)OC[C@H]1O[C@@H](Sc2sc(C(=O)c3ccc(C)cc3)c(N)c2-c2nc3ccccc3s2)[C@H](OC(C)=O)[C@@H](OC(C)=O)[C@H]1OC(C)=O	SF-295	SRB	10 µM, 48 h	relative to: untreated	growth	96.9%

SMILES	cell line	test	setting	scale	endpoint	value
Cc1ccc(C(C)C)cc1.[Cl-].[Cl][Ru+].[Ru+].c1ccc(-c2cn(CCCCOc3ccccc3-c3nc4ccccc4s3)nn2)nc1	MCF7	annexin V/PI flow cytometry	8 µM, 24 h		necrotic cells	10.5%
COc1cc(CNC(=O)C[C@H](C)CCC=C(C)C)ccc1OCc1cn(-c2cccc(Cl)c2)nn1	UACC-62 melanoma cells	SRB	10 µM, 48 h		growth percent	108%
COc1cc2c(OC3OCC(OC)C(OC)C3OC(=O)c3ccc(Br)cc3)c3c(c(-c4ccc5c(c4)OCO5)c2cc1OC)C(=O)OC3 (centres unmarked)	FaDu	transwell	0.1 and 1 µM, 36 h	relative to: DMSO	migrating cells	decreased
COC(=O)[C@@H]1[C@@H](OC)[C@H](OC(=O)c2cc(OC)c(OC)c(OC)c2)C[C@@H]2CN3CC[C@]4(O[C@@H]3C(=O)[C@@H]21)C(=O)Nc1cc(OC)c(-c2ccc(C(F)(F)F)cc2)cc14	RS4;11	annexin V/PI flow cytometry	5 µM, 72 h		late apoptotic cells	80.5 ± 10%
CCCC[C@@H]1NC(=O)[C@@H](NC(=O)[C@H](CCC(=O)O)NC(=O)[C@H](CCC(=O)O)NC(C)=O)CCCCNC(=O)[C@@H](NC(=O)CN2CCN(CC(=O)O)CCN(CC(=O)O)CCN(CC(=O)O)CC2)CCCCNC(=O)[C@H](C(C)C)NC(=O)[C@@H]2CCCN2C(=O)[C@H](CCCNC(=N)N)NC(=O)CNC(=O)[C@H](Cc2c[nH]c3ccccc23)NC(=O)[C@H](CCCNC(=N)N)NC(=O)[C@@H](Cc2ccccc2)NC(=O)[C@H](Cc2c[nH]cn2)NC(=O)[C@H](CCC(=O)O)NC1=O [indium-111 labelled]	B16/F1		2 h, 25 °C		cellular uptake	81.12 ± 0.28%
O=Cc1c(O)ccc2ccccc12	HUVEC	RNA sequencing, refers to: CXCL2	75 µM, 24 h	relative to: DMSO	log2 fold change	2.54
[Cl-].[Cl][Ru-4]123([n+]4ccccc4-c4cccc([n+]41)-c1cccc[n+]12)[n+]1ccc(-c2ccccc2)c2ccc4c(-c5ccccc5)cc[n+]3c4c21	HeLa XPA knockout		72 h	relative to: parental HeLa over XPA knockout	sensitization ratio	2 fold
O=C1Nc2ccccc2/C1=N\Nc1nnc2n1N=C(c1ccc(Cl)cc1)CS2	MDA-MB-435	cell growth or viability, SRB	10 µM		inhibition	19%
CCN(CC)C1CCN(Cc2cc(C#CCO)cc(I)c2O)CC1	NUGC-3 (p53 Y220C)	apoptosis, ApoTox-Glo Triplex	6.25 to 100 µM, 6 h, 37 °C		caspase-3/7 activity	no effect
C[C@H](CC(=O)C[C@@H](C)[C@H]1C[C@H](O)[C@@]2(C)C3=C(C(=O)C[C@]12C)[C@@]1(C)CCC(=O)C(C)(C)[C@@H]1C[C@@H]3O)C(=O)O	3T3-L1 adipocytes		12.5 µg/mL		glucose consumption	11.7 ± 0.34 mmol/L
CC(=O)N[C@H](C(=O)N[C@H](C(=O)N[C@@H](CCCNC(=N)N)C(=O)N1Cc2ccccc2C[C@H]1C(=O)N[C@@H](Cc1ccccc1)C(N)=O)C1CCCCC1)C(C)C	MBP-specific BC-3 T cells	Bio-Plex multiplex, refers to: IL-4	200 µg/mL, 24 h, with: MBP87-99 antigen		cytokine level	2.5 ± 0.9 pg/mL
CC(C)=CCc1cc2c(cc1O)OCc1c-2oc2c(CC=C(C)C)c(O)ccc12	3T3-L1 adipocytes	activator	up to 100 µM		glucose consumption	inactive
COc1ccc(C2=Nn3c(NN=C4C(=O)N(Cc5ccccc5)c5ccc(Cl)cc54)nnc3SC2)cc1	MDA-MB-435	cell growth or viability, SRB	10 µM		inhibition	14%
C[n+]1ccc(/C=N/NC(=O)c2cccc(C(=O)N/N=C/c3cc[n+](C)c4ccccc34)n2)c2ccccc21	A549 cisplatin-resistant	CellTiter-Glo	96 h		GI50	57.1 ± 6.5 µM
Cc1cc([C@H](C(=O)N2C[C@H](O)C[C@H]2C(=O)N[C@@H](CC(=O)N2CCC(N3CCC(C#Cc4ccc(C(=O)N[C@H]5C(C)(C)[C@H](Oc6ccc(C#N)c(Cl)c6)C5(C)C)cc4)CC3)CC2)c2ccc(-c3scnc3C)cc2)C(C)C)on1	MDA-MB-453		concentration not given, 24 h, with: 1 nM R1881		total AKT level	no effect
CCC(=C(c1ccc(Cl)cc1)c1ccc(OCCCN(C)C)cc1)c1ccc(OC)cc1	SF-295	cell growth or viability, SRB			GI50	0.92 µM
CC/C=C\C/C=C\C/C=C\C/C=C\C/C=C\C/C=C\CCC(=O)Nc1ccn(C2OC(CO)C(O)C2(F)F)c(=O)n1 (centres unmarked)	SF-295	cell growth or viability, SRB			GI50	0.0791 µM
Cc1ccc(=O)n(-c2ccc(NC(=O)[C@H](C)N(C)C)cc2)c1	NIH3T3	cell growth or viability, CCK-8	500 µM		inhibition	58.6%
COC(=O)c1ccc2c(c1)NC(=O)/C2=C(\Nc1ccc(N(C)C(=O)CN2CCN(CCOCCOCCNC(=O)c3cc(OCc4cn(CCCCN5C[C@@H]6C[C@H]5C(=O)N[C@@H](CC(C)C)C(=O)N[C@@H](CCCNC(=N)N)C(=O)NCC(=O)N[C@@H](CC(=O)O)C(=O)N[C@@H](CC(C)C)C(=O)N6)nn4)cc(OCc4cn(CCCCN5C[C@@H]6C[C@H]5C(=O)N[C@@H](CC(C)C)C(=O)N[C@@H](CCCNC(=N)N)C(=O)NCC(=O)N[C@@H](CC(=O)O)C(=O)N[C@@H](CC(C)C)C(=O)N6)nn4)c3)CC2)cc1)c1ccccc1	L929	cell internalization, flow cytometry	5 µM, 24 h		fluorescence-positive cells	19%
COc1cc(CNC(=O)C[C@H](C)CCC=C(C)C)ccc1OCc1cn(-c2ccc(Cl)cc2Cl)nn1	NCI-H226	SRB	10 µM, 48 h		growth percent	66.3%
O=C(Nc1ccc(C(F)(F)F)cc1Cl)c1cc(Cl)ccc1O	CWR22Rv1 cells	total cell number	0.5 µM, 5 days		cell growth	decreased
COc1cc(CNC(=O)C[C@H](C)CCC=C(C)C)ccc1OCc1cn(-c2ccc(Br)cc2)nn1	UACC-62 melanoma cells	SRB	10 µM, 48 h		growth percent	65.2%
Cc1ccc2c(n1)c1nc(C)ccc1c1nc3cc4ccccc4cc3nc21.[Ru+2].c1ccc(-c2cccc(-c3ccccn3)n2)nc1.c1ccncc1	M1 murine macrophages			relative to: dark EC50 over light EC50	phototherapeutic index	> 100

Excerpt of the above:
SMILES	cell line	test	setting	scale	endpoint	value
Cc1cc([C@H](C(=O)N2C[C@H](O)C[C@H]2C(=O)N[C@@H](CC(=O)N2CCC(N3CCC(C#Cc4ccc(C(=O)N[C@H]5C(C)(C)[C@H](Oc6ccc(C#N)c(Cl)c6)C5(C)C)cc4)CC3)CC2)c2ccc(-c3scnc3C)cc2)C(C)C)on1	MDA-MB-453		concentration not given, 24 h, with: 1 nM R1881		total AKT level	no effect
CCC(=C(c1ccc(Cl)cc1)c1ccc(OCCCN(C)C)cc1)c1ccc(OC)cc1	SF-295	cell growth or viability, SRB			GI50	0.92 µM
CC/C=C\C/C=C\C/C=C\C/C=C\C/C=C\C/C=C\CCC(=O)Nc1ccn(C2OC(CO)C(O)C2(F)F)c(=O)n1 (centres unmarked)	SF-295	cell growth or viability, SRB			GI50	0.0791 µM
